Assay results pooled from the literature.
A part holds a random share of what one study measured.

Series 1 — method: RNA Bind-n-Seq; molecule type: RNA; sample: in vitro; tested at: 365 nM; baseline: no-protein control; reading: higher = stronger binding; endpoint: RBNS enrichment (R)
Target: RNA binding protein fox-1 homolog 2, RRM domain, GST-SBP tag (RBFOX2, Homo sapiens, UniProt O43251-10, residues 100-194)
Setting: natural RNA segment, single round, ends assumed
All sequences stand within: GGGAGUUCUACAGUCCGACGAUC … UGGAAUUCUCGGGUGCCAA
Residues (chain): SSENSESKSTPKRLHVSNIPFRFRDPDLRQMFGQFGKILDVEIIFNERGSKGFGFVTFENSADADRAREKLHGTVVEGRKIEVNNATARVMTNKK
CUGAAAGAAGGGUUUUCUGUGCUGUGAAAUGCAUAGAACUUACACUUUGCCGUGCACGACUGUUCCUGCAAUUGAUAUUGUGUGAAACCUGGGAGGGUGGUCUUUGGGUG: 0.863
UCCUCCGUGCGCCUCAGACUCGGGGUGAGGGAGGCGGGCAGCCUCUCGCCAGCCUUCCCGUCCUUCAGUUCAACGACAUCUUUGGAGUGUUUUUGUUUUCUCUUCCAAGG: 0.224
UUCUUCCCUUCCUUUGUUUUCAUAAGCCUUUGGUAUCUUUCCUGCCCUUUUCCUUUGUGUACUCUAUACUGGAGUUCCCUUCUUCCUCUUGCUGUAGGCUCAAUCCCAUA: 1.16
UCUGACUCACAUGAAGUUACCUGUUUCUGUUAGCUUUUGGGGAGACUCUUGGACUCAUAGGGCAGAAUGAAGGGCUGUAAAGAUGAGGGGGUAUUUCUUCUACCCUAUCU: 0.559
CACUUAACUAUACGUACUUUAUCUCUGGUAACACUAGAAUGCUGUGGUCUUGAGGGAAUGUUAGCAAGGAACACAUAGAAGAUUUGGUGUUUCAUAAGCCUGUCUAGGUG: 6.2
UCCUUUUUUUUAACCAUCUGAUACUAAGAAGAUGAAUUUGCACAGAUUUCUCUGCAUAAUUUCUCAAUAUCUUUAGCACAGUAUGGUGAUGAUGACUUUUAAGCAUUUAC: 0.513
UAUUUAAAUGAAAUUUAAUUUGAAAAUAGAAAAUAAAAUUAGGUAAAUAUGACUGGCAACCUGAAUUUGAGUUGGGAUUCUUUGUGUAUUUUUCCCCCUUGAGGUUAUUG: 0.719
CUUCCUUCUUGUUAAUAAGGAGACCUGACGCACACAGCCAGUGGAUUCCCCUCCACCUCGGGAGGGGACAGGCUCCCACAUCCCAUCCCACCCUCCACACCCCAAAGAGA: 0.614

Series 2 — method: RNA Bind-n-Seq; molecule type: RNA; sample: in vitro; tested at: not given; baseline: input RNA pool; reading: higher = stronger binding; endpoint: bound/input enrichment
Target: RING finger protein unkempt homolog, zinc fingers 1-6, GST-SBP tag (UNK, Homo sapiens, UniProt Q9C0B0, residues 30-357)
Setting: RNA with constant flanks, human-mouse chimeric sites, ends assumed
All sequences stand within: GGGAGUUCUACAGUCCGACGAUC … CAACAGAGGAUUGAGCAUCA
Residues (chain): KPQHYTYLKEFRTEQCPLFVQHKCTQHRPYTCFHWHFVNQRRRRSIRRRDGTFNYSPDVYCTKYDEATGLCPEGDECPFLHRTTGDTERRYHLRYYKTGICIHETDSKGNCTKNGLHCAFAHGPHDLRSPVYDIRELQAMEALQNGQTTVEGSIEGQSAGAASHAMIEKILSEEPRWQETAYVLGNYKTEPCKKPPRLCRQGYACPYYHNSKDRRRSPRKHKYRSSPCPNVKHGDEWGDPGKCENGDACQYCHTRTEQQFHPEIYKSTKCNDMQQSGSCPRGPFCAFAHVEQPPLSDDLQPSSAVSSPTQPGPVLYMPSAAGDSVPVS
CACACACUCUUCUGCGGGACCCUCAUCUUGCAGGCCCGGGCCUAUGUGGGACCCCGUGUCCUGGCAGUGGUGACCCGCACAGGGUUCUGCACGGCAAAAGGGGGCCUGGUGAGCUCCAUC: 0.0765 ratio
GCCACCAGAUCCCAGAAACAUGACCCUUGCAGCCUAUAAAGAGAAGAUGAAGGAGCUCCCGCUGGUGUCCUUGUUCUGCUCCUGCUUCCUGGCCGAUCCCCUGAAUAAGUCGUCCUACAA: 0.277 ratio
AUGGAACAUUUCGAUGCAUCACUUAGUACCUAUUUCAAGGCCUUCCUGGGCCCCCGAGAUACAAGAGUCAAAGGAUGGUUCCUCCUGGACAAUUAUAUCCCUACGUUUGUCUGUUCUGUU: 0.378 ratio
UCUUAACUUAUUCAUUUAACUUAUUUUUAUAGCUAGAUAAAUAUUGUUAGUCUUAGUCAAUAGCUCACAUCUUUACAGAAGCAUGCCCUCCCUGUCCAUUUGUCUUAUAACAUGACCCAG: 13 ratio
ACUCUUGACUCUUUCCAUUCUCGUCCCUUCCCUCUUGAUAUUCAAGGCCAUGAAUCCCAAAAUAACAGUCUUAGUGGCUAGCACCCAAACAGAGGUGGAAUAAAUCCAAACUGACAACUC: 0.607 ratio
CUGAGGAUACCACUGAAGAGACCUUAAAAGGAGUCAUUGAGGGCUCUGUUCGUGCAAGAAUAGUCACUGAUCGGGAAACUGGUUCUUCCAAAGGGUUUGGUUUUGUAGACUUUAAUAGUG: 1.03 ratio
ACCAUUUUCGCGGUUCAAGGUUUUGUGGUAGUUCACUUACGGUAUUAAAUUAUUAUUCUGCUUAGCUUAUAAUAAGGAUAAUUGCAUUUAAAGAGGUGAUCACUGAAUACUCUGAAACUU: 0.756 ratio
ACAGUUAUAUUGUUGAGUUUCAUUUUCAUAUAUUCUUAUGGUGUCUGCUUGCCUGUGACUUCUGGUAAAAUAAAAUAAGCCUUUGAAAAUAUUUUAGAUUUAACAUUAACAUUUUCUAAA: 3.75 ratio

Series 3 — method: universal PBM; molecule type: double-stranded DNA, one strand shown; sample: in vitro; tested at: not given; reading: higher = stronger binding; endpoint: E-score
Target: Sal-like protein 4, full length isoform B (SALL4, Homo sapiens, UniProt Q9UJQ4-2, residues 1-616)
Setting: 8-mer, flanks averaged, mean of replicates
AGACGCGA: -0.0761
CGGTGAAG: -0.102
CACATAGA: 0.112
CATCTGTA: 0.188
ACTAGGGC: -0.0891
AAGGGCTG: -0.224
ACTACGCA: -0.0413
CCATGATA: 0.171
AGGTCCGG: -0.313
AATACCCC: -0.206
CCCTGATA: 0.0178
CTTCGTTC: -0.134
GATCCTCA: -0.00355
ATCGGGTA: -0.0803
TATTACGA: 0.303
AATTAAGG: 0.19
CGGATCCA: 0.00119
GCTGAATA: 0.208
AGGCTTTC: -0.0373
GGTACATA: 0.0656
ACCCGTAG: -0.266
CCATGTAG: -0.00761
CGAAAGTC: -0.0961
CCGACCAA: -0.202
ACATGGAA: 0.17

Series 4 — method: protein binding microarray; molecule type: double-stranded DNA, one strand shown; sample: in vitro; tested at: not given; baseline: not given; reading: higher = stronger binding; endpoint: E-score
Target: Histone acetyltransferase KAT6A, both winged helices, GST fusion (KAT6A, Homo sapiens, UniProt Q92794, residues 1-181)
Setting: 8-mer, flanks averaged, mean of 2 arrays, mostly near background
Target sequence (chain): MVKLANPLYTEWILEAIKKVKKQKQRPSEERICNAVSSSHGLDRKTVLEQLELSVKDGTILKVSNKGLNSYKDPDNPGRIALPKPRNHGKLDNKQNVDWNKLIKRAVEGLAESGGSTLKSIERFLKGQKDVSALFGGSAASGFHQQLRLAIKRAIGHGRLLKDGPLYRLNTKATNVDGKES
CCCAACGG: -0.00421
ATTCGTTC: -0.132
GAGGGATA: -0.142
GACTCTGA: -0.102
CACCCACC: -0.186
AGCATGGC: -0.124
CCATTGCG: 0.164
CCGCAGCC: 0.136
GGTACCGA: 0.0193
GAGACCGC: 0.172
AACTTGAG: -0.18
AGGGGAGC: -0.109
AGAAAGGA: -0.0801
ATACGTGA: 0.0138
CACCACCC: 0.0186
AAAAACAG: -0.0464
CAAGCACA: -0.176
ACGACCCA: -0.221
GCACGCCA: 0.0142
ATTCTTGC: -0.0296
AACCGTGT: 0.0484
ATTCAGCC: 0.0898
CTTTGACA: -0.0366
CTGGAACC: 0.0228
CAACACTC: 0.00932

Series 5 — method: protein-binding microarray; molecule type: double-stranded DNA, one strand shown; sample: in vitro; tested at: 2200 nM top; setting: 60-bp whole probe; with: salmon DNA 0.4 mg/ml; baseline: random background probes; reading: higher = stronger binding; endpoint: fitted relative affinity; all sequences stand within: GCCTAGCAC … GTCTTGATTCGCTTGACGCTGCTG
Target: Interferon regulatory factor 7, full length, phosphomimetic (IRF7, Homo sapiens, UniProt Q92985, residues 1-503, S471D/S472D/S475D/S476D/S477D/S483D/S484D/S487D)
Residues (chain): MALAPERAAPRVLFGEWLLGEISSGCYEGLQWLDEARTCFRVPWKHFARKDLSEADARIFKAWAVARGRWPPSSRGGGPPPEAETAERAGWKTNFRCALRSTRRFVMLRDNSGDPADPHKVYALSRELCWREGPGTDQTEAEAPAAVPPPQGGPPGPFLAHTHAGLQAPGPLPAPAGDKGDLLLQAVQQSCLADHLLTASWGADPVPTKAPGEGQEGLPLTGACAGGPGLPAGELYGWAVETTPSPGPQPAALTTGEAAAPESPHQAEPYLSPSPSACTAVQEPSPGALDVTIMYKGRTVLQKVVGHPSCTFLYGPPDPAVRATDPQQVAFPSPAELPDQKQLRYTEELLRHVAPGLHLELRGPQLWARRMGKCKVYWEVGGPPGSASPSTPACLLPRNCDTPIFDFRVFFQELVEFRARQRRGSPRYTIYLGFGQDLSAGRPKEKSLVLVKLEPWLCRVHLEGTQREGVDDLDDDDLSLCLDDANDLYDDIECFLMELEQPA
CTGGTCCTCCTGACTGGGGTGGTGCTA: -0.427 z-score
CTCCACTTGTGTTTGGGCATGTGCTAG: 1.59 z-score
TCATGATTGAATCTCCCACTGTGCTAG: 0.827 z-score
GACGGTTTCGGTCTCAGGACGTGCTAG: 6.45 z-score
GACGGTATCGGTAGCGGGACGTGCTAG: -0.233 z-score
TTCCCAATGGTCTTTCCACTTGTGCTA: 2.77 z-score
TCACTTTTTTTAATTGAACTGTGCTAG: 0.917 z-score
GACGGACTGGGACTGGGTACGTGCTAG: -0.853 z-score
TTAGGACTGCTTCTACTTTAGTGCTAG: 0.228 z-score
TTAGGTTTGGGACTGGGTTAGTGCTAG: -0.0341 z-score
TTAGAACTGCGTCTCGATTAGTGCTAG: 0.0666 z-score
TTAGGACTTCTTTTCCTTTAGTGCTAG: 1.11 z-score
TTAAGTCTCCTTATCCTTTAGTGCTAG: 1.12 z-score
GACGATATCAGTTTCGAGGCGTGCTAG: 2.88 z-score
GCCACTTTCCATTTCTGTTTGTGCTAG: 10.7 z-score
TTAGGTATCGGTCTCGTTTAGTGCTAG: 1.11 z-score
